Experimental data collected from several papers.
± gives the spread as reported. Non-standard residues stand in square brackets, D forms with d. Square brackets hold non-standard residues; d marks the D form. Where no end group is shown, it is not given here. Ends that are not written are not given here. No end group written: not given here. *: point of attachment.
T1: STAG2/RAD21 STAG2 80-1060, RAD21 281-420 (Homo sapiens); chain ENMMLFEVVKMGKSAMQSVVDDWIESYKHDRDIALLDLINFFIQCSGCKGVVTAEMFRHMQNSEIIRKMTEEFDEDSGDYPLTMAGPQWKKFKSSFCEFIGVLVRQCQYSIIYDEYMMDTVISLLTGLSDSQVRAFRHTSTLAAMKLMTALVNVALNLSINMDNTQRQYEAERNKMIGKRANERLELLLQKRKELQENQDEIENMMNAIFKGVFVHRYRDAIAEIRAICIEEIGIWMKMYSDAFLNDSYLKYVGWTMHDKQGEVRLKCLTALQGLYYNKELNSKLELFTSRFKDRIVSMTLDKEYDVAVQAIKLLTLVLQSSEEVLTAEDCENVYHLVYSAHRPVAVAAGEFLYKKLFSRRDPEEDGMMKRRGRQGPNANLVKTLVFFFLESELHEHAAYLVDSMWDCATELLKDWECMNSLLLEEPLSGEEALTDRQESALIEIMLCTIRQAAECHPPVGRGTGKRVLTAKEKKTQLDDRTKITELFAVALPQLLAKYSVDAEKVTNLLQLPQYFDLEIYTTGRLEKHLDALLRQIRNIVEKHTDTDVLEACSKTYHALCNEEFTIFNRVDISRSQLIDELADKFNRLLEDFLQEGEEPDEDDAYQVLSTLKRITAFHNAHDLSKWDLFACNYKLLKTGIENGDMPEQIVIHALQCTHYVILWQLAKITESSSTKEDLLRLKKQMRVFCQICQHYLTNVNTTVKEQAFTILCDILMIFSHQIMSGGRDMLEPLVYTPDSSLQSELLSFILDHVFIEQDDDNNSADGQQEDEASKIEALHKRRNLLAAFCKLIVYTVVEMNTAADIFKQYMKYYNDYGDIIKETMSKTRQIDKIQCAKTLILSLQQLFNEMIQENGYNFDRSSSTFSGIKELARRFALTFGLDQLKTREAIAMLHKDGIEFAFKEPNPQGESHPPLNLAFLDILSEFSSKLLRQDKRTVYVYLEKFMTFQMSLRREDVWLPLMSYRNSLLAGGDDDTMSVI; chain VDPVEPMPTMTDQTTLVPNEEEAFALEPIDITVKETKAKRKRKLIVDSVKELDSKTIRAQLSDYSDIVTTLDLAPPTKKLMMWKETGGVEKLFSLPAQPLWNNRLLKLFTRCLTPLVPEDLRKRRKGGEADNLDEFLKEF
B1: colicin N T and R domains (Escherichia coli); chain MGSNGADNAHNNAFGGGKNPGIGNTSGAGSNGSASSNRGNSNGWSWSNKPHKNDGFHSDGSYHITFHGDNNSKPKPGGNSGNRGNNGDGASAKVGEITITPDNSKPGRYISSNPEYSLLAKLIDAESIKGTEVYTFHTRKGQYVKVTVPDSNIDKMRVDYVNWKGPKYNNKLVKRFVSQFLL
UniProt O15392, sequence (whole entry, looked up): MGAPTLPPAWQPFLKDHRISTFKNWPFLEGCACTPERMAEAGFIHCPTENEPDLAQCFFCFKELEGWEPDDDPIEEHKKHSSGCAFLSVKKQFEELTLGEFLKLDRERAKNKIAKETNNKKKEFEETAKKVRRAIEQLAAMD
UniProt P25063, sequence (whole entry, looked up): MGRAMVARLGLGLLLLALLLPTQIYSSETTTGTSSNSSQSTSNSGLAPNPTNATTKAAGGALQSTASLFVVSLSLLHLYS
UniProt P03713, sequence (whole entry, looked up): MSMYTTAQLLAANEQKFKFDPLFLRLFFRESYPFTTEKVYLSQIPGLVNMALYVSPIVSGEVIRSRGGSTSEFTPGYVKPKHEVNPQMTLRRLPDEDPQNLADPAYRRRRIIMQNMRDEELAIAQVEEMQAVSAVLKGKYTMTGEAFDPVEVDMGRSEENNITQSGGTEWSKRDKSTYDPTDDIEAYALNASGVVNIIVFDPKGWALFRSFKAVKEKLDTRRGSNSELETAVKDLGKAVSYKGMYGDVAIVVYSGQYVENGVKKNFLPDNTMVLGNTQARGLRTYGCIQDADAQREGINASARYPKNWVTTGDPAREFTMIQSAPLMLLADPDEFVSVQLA
UniProt O95166, sequence (whole entry, looked up): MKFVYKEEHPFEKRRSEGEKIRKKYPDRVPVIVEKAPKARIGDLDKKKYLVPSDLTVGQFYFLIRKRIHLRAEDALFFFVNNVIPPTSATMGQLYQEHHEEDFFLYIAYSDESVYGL
UniProt P02931, sequence (whole entry, looked up): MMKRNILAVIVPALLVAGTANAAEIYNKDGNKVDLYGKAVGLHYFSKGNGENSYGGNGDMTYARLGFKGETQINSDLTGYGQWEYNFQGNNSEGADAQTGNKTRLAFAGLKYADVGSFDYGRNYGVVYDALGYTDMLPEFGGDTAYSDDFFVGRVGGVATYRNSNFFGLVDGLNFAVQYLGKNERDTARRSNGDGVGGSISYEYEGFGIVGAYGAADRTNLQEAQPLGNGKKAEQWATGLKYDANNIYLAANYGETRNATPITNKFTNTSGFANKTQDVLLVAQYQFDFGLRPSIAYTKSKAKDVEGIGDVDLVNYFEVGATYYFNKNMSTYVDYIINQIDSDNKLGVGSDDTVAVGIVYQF
UniProt O43791, sequence (whole entry, unmodified, looked up): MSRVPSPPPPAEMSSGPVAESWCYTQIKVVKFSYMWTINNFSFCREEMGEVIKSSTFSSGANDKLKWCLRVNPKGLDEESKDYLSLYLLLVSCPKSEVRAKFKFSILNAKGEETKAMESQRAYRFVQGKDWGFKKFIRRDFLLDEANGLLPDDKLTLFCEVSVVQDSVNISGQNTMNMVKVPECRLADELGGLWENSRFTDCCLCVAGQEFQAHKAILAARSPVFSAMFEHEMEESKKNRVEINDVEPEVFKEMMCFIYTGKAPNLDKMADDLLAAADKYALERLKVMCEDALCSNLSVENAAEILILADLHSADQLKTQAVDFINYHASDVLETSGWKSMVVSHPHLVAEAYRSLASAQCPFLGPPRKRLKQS
UniProt O26157, sequence (whole entry, looked up): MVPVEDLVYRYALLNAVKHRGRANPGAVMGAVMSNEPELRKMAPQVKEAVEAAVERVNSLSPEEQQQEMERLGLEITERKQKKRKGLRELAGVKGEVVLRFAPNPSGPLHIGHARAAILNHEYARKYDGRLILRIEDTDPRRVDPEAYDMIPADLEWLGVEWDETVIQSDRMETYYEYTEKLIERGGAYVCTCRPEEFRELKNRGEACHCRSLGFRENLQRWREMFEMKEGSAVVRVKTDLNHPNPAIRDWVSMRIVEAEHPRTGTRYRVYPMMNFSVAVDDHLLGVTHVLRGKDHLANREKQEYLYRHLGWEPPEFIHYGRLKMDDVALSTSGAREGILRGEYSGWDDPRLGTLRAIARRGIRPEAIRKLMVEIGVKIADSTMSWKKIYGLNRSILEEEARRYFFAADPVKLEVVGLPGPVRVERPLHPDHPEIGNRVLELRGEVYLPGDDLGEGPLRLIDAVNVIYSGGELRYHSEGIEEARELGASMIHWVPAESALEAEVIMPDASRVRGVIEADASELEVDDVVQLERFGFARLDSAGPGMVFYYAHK
UniProt Q15109, sequence (whole entry, looked up): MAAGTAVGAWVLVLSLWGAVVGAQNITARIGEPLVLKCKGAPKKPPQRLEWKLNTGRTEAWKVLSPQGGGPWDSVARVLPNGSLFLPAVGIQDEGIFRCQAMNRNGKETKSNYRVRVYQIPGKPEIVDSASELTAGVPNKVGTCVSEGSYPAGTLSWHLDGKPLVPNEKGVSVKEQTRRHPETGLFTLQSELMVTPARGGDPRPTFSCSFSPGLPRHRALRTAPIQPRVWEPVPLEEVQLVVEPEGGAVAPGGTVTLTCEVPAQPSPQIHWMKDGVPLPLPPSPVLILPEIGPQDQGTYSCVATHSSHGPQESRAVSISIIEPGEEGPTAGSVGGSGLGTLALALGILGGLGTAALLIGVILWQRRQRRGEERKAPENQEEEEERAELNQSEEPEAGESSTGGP
UniProt P11021, sequence (whole entry, looked up): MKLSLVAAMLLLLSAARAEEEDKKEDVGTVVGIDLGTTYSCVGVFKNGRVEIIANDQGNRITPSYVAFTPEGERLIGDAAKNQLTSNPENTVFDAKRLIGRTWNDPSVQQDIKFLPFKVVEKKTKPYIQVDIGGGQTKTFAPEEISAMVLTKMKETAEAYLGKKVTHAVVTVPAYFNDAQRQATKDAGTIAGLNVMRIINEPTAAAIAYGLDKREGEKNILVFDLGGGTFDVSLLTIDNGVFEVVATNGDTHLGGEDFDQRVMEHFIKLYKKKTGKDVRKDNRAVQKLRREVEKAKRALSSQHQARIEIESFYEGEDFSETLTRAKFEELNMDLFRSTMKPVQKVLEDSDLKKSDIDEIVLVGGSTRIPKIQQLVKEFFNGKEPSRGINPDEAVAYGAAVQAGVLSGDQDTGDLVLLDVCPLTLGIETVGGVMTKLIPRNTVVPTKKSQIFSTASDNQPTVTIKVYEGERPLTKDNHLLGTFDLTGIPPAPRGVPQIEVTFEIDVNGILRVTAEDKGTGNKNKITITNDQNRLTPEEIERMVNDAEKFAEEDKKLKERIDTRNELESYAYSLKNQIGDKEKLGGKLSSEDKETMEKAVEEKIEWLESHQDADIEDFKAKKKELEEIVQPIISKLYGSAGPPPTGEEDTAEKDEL

Molecule	partner	assay	test system	setting	Kd
AHPHSDKLVPPR (designed peptide)	ALB (Homo sapiens, UniProt P02768)	ITC	peptide	pH 7.4, 25 °C, low c value	46000 nM
CD24/Siglec-10 blocking peptide, D-amino acids	CD24 (Homo sapiens, UniProt P25063)	MST			9220 nM
CHN2 fragment P53A	NCK1 fragment (Homo sapiens)	SPR			3000 ± 2000 nM
CDYIPYLAYYNPNTYFQ (designed peptide)	ERBB2 fragment (Homo sapiens)	SPR	peptide		90.6 nM
gltX (Methanothermobacter thermautotrophicus, UniProt O26157)	GatD/GatE, Alexa Fluor 488 label (Methanothermobacter thermautotrophicus)	fluorescence polarisation			40 nM
{FITC-Ahx}-LWGFLSRNKKPRICTREEF (NS5 NLS central peptide (dengue virus 1); N-terminal FITC, AHX linker; FITC = O=C1OC2(c3ccc(O)cc3Oc3cc(O)ccc32)c2ccc(NC(=S)*)cc21; Ahx = NCCCCCC(=O)O)	KPNA4 fragment (Homo sapiens)	fluorescence polarisation	peptide	pH 8, one-site fit	400 ± 100 nM
Biotin-GGGSFSIIHTPILPL (peptide; Biotin = O=C1N[C@H]2[C@H](CS[C@H]2CCCCC(=O)*)N1)	HSPA5 (Homo sapiens, UniProt P11021)	flow cytometry	peptide		> 700 nM
DVKLEFFGFEDHETGGDEGGSGSSNYKIKYFGFDDLSESED (WAPL 423-463 (Homo sapiens, UniProt Q7Z5K2))	T1, STAG2/RAD21 STAG2 80-1060, RAD21 281-420 (Homo sapiens)	ITC	peptide	one-site fit	32800 nM
B1 (colicin N T and R domains)	ompF mature, trimer (Escherichia coli, UniProt P02931)	ITC		25 °C	1600 nM
ENLACDEVTSTTSSSST-NH2 (Puc residues 91-107; not fully specified (N-terminus); N-acetyl, C-amide, fluorescein label)	SPOP 28-359 L186D/L190D/L193D/I217K (Homo sapiens, UniProt O43791)	FP	peptide		5600 nM
LSQ[MG‑H1]FPKAE (ALB peptide 243-251 (Homo sapiens); MG-H1 at position 4)	AGER V domain 24-125 (Homo sapiens, UniProt Q15109)	tryptophan fluorescence titration	peptide	pH 6.5, NaCl 100 mM, single-site	35 ± 4 nM
[dR][Dmt]KFGGMAPRGFSCLLLLTGEIDLPVKRRA-NH2 (peptide; D-Arg1/Dmt2/C-terminal amide; Dmt = Cc1cc(O)cc(C)c1C[C@H](N)C(=O)O)	Aβ42, FITC label (UniProt P05067)	MST	peptide	10 min, 25 °C, together with: FITC-Aβ42 50 nM	55500 nM
ACE2/pIgR VHH6 Fc fusion ACE2 , Fc fusion (Homo sapiens)	PIGR (Homo sapiens, UniProt P01833)	BLI			265 nM
GSKIITALEKGEVEESEYVVITVRNEP (FNIP2 550-576 (Homo sapiens, UniProt Q9P278))	GABARAP (Homo sapiens, UniProt O95166)	competition in solution, SPR	peptide	single-site fit	29 ± 2 nM
C3 fragment (Homo sapiens)	sbi fragment (Staphylococcus aureus)	SPR		NaCl 150 mM	1600 nM
RRRRRRRRRQLDMFKE (scrambled INCENP peptide; N-acetyl, D-Arg9, aminohexanoic linker, C-amide)	BIRC5 (Homo sapiens, UniProt O15392)	QCM	peptide		> 1000 nM
gpE (phage lambda, UniProt P03713)	protein, RED-tris-NTA label on His tag (Escherichia coli, UniProt B7LDL1)	MST		apparent	127 nM
YGQEDIDVMGL (SAG residues 67-77 (Bos taurus))	RHO Meta II, phosphorylated, retinal (Bos taurus, UniProt P02699)	Extra Meta II assay	peptide, native disc membranes	pH 8.0, 0 °C	800000 nM
SNDAYNFNLEEGVHL[pT]PFR (SGO1 331-349 (Homo sapiens, UniProt Q5FBB7); pT346; pT = C[C@@H](OP(=O)(O)O)[C@H](N)C(=O)O)	T1, STAG2/RAD21 STAG2 80-1060, RAD21 281-420 (Homo sapiens)	ITC	peptide	one-site fit	2320 nM

Excerpt of the above:
Molecule	partner	assay	test system	setting	Kd
CDYIPYLAYYNPNTYFQ (designed peptide)	ERBB2 fragment (Homo sapiens)	SPR	peptide		90.6 nM
CHN2 fragment P53A	NCK1 fragment (Homo sapiens)	SPR			3000 ± 2000 nM
